# Assay results gathered from unrelated publications.
# Every numbered part comes from another study and shows a few of its results, in no order. Positions count from the first letter of the parent shown.
# Chain of UniProt Q9H2K8 (whole entry, looked up): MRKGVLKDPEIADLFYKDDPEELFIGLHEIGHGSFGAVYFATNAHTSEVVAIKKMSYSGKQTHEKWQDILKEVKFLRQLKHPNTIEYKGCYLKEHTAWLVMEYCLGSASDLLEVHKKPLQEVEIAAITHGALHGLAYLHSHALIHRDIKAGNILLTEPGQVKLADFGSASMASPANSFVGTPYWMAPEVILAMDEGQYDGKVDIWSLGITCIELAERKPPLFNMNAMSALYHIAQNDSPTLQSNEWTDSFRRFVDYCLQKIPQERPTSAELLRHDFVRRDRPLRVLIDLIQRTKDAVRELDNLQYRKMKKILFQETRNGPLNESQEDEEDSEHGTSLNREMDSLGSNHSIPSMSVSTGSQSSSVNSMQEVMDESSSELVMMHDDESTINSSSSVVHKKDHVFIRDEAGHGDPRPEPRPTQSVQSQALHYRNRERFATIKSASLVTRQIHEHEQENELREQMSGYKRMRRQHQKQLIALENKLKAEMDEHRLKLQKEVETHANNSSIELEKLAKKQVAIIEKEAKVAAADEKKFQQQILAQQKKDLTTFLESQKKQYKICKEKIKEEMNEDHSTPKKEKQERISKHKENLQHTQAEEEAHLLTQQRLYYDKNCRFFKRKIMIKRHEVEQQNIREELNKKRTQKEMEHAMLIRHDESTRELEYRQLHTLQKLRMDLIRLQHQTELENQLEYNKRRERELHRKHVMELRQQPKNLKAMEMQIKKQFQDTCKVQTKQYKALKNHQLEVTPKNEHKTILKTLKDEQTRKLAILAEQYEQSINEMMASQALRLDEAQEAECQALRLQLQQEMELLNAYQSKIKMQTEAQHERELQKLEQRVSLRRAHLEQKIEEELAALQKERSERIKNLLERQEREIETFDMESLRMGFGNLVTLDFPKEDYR

# Study 1
# Target: PABPC1L2, full length, GST fusion (mouse, UniProt A0ABA7IW68)
# Technique: RNAcompete
# Form: RNA
# Sample: in vitro
# Tested at: 20 nM
# Setting: 7-mer, probes averaged, single round
# Baseline: mean of 7-mers
# Direction: higher = stronger binding
# Target sequence (chain): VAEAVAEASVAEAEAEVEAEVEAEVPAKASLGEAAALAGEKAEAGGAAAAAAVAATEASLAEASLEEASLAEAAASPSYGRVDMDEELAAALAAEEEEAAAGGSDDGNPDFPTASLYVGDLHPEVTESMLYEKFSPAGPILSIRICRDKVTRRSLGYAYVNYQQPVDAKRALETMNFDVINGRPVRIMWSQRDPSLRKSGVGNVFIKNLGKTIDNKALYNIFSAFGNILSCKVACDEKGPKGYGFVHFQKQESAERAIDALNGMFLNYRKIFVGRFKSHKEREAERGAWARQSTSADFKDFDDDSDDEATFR
Oligonucleotide,7-mer Z-score
CCAUCUC,-0.447
UGUAAAA,2.62
GGCCUGC,-0.0844
UUCGCGU,-0.327
ACUAGAA,0.258
CUUGUGC,-0.378
AAGUGAU,-0.012
ACGAUGA,-0.0409

# Study 2
# Target: RING finger protein unkempt homolog, zinc fingers 1-6, GST-SBP tag (UNK, Homo sapiens, UniProt Q9C0B0, residues 30-357)
# Chain of UniProt Q9C0B0 (30-357, looked up): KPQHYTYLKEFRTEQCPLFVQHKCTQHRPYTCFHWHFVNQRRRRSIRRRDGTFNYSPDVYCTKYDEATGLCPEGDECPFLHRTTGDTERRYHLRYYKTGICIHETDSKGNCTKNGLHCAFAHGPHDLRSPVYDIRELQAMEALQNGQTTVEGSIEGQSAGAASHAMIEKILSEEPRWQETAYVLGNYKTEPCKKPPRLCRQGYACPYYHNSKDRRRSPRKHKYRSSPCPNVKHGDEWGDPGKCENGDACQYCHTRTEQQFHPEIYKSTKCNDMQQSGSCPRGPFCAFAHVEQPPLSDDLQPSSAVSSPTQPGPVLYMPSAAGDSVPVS
# Technique: RNA Bind-n-Seq
# Form: RNA
# Sample: in vitro
# Tested at: not given
# Setting: RNA with constant flanks, ends assumed
# Baseline: input RNA pool
# Direction: higher = stronger binding
Oligonucleotide,bound/input enrichment
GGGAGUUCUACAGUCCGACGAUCGUGUGGACAGCUGACAAAUUUAAUCCUUUGUAAUACUUUCUUUGUGACAUUUCUCUUCCCCUCCGAAACAUUGCACAUUUUAACUCUAGGCAUGGCCUCUUCUGGUGUUGACUGGACUUGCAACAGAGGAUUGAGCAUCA,0.385 ratio
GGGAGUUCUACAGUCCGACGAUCUUGCCGGCUGAAGAAGGAAAAACCUUGCUGGAACUUGUGAUUGAGCAGUUUGAAGACUUACCCGUCCGAAUUUUACUGCUGGCAGCAUGUAUAUCUUUCGUUUUGGCUUGGUUCGAGGAACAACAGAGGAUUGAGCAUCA,0.204 ratio
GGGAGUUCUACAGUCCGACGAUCGAAGCCUUGAAGAUCUUCCAGAAAAUAAAGGAUGAAAAGAGUCCAGAAUGGUCCAAAUACUCCGGAUUAAUCAAAAAAUUUGUCACUGAUUCCAAUGCAGUGGUUCAAUUGAAAGGACUACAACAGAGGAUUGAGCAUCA,0.192 ratio
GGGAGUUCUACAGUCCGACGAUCGAUGUAGUAGUCAACAUUUUUAUUAAUAGUUUUGGAUCCAUUCAAGAGACAACAAUGGACUACCGAGUUAACAUUUUCUUGAGACAGAAAUGGAAUGACCCCAGACUCAAGCUACCUAGUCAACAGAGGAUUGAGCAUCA,1.87 ratio
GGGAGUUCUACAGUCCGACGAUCCUGCAGUCUUUGACUUUUCCUUUCUUUUUUGCCACCCUUUCAGGAACCCUGUAUGGUUUUCCGUUUAAAUUAAAGGAGUCGUUAUCGUGGUGGGAAUAUGAAAUAAAGUAGAAGAAAAGGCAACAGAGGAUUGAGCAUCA,0.186 ratio
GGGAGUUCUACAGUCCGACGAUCUUGCUAUUGUGAGAUGGAUUUUAACUGACCUAUUAAGGGUUUCUUUCGAAUGGCACUACUUCCGGGACAUUCUAGUAUUUGCUUCUAUUGUUUGGGCCUUGUGGAUAAUGUACAGAUUUACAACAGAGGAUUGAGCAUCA,0.743 ratio
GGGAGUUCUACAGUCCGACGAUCUACUUAUGCCAAUAUUGUGAAUAUUCAACAGGACAAAUUGACGAUCUUAAAAUUCAUCCCGAUUUCAAGCAUUCAGCUGACUUGCCUCAUAAAUGUAGUGAGUGCUUGAUGAGGUUUGGGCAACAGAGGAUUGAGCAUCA,0.295 ratio
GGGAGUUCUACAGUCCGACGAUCCAUAAUUAUGGUGCUCGUCCUCCUCCGACACCUCCGGCUUCCCCUCCUCCAUCAGUCCUUAUCCGCAAAAAUGAAGUAGGCAUAUUUACCACUCCUAAUUUUGAUGAAACUUCCAGUGCUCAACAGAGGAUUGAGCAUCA,1.1 ratio

# Study 3
# Target: CCNB3, cyclin fold, Cln2 fusion (human)
# Technique: yeast growth competition, sequencing
# Sample: yeast
# Setting: weak parent motif
# Baseline: not given
# Direction: higher = stronger binding
# Parent: CDC6 docking peptide (human); TLKGRRLVFDNQL; partner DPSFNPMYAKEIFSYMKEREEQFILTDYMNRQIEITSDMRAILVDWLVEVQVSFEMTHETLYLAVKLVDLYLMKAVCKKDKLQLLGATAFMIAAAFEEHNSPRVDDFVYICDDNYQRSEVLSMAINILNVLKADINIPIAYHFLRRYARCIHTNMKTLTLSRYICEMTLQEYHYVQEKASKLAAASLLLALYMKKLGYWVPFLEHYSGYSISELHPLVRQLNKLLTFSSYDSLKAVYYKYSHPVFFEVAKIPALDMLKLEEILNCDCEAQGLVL
Variant,normalised enrichment score
TLKGRWLVFDNQL [R6W],-0.359
TKKGRRLVFDNQL [L2K],0.214
QLKGRRLVFDNQL [T1Q],-0.17
TLKGRRLVMDNQL [F9M],0.238
TLKGRRLVFDNFL [Q12F],1.01
TLRGRRLVFDNQL [K3R],0.303
TLKGRRNVFDNQL [L7N],-0.12
TLKGRRLVFDSQL [N11S],-0.145

# Other studies, line by line
SMILES,target,read-out,action,tested at,baseline,endpoint,value
N#CC(c1ccnc(NCCc2cccnc2)n1)c1nc2ccccc2s1 (stereo not shown),"Serine/threonine-protein kinase TAO3 (TAOK3, Homo sapiens, UniProt Q9H2K8)",enzyme activity,inhibitor,0.5 µM,control,remaining activity,87.5%
